# Results of several laboratories.
# Each line is one published result; not all experiments were run side by side. ± gives the spread as reported.
SMILES,test,system,setting,how to read,quantity,result
O=C(CCCCCCC(=O)Nc1ccccc1)NO,,"patients, serum","oral, 600 mg, cycle -1, alone",,AUC(0-7 h),8.52 µM·h
Cc1nc2cccc(OCC(C)(C)C(=O)NC(C)C)c2c(N)c1C(=O)O,,"male Sprague-Dawley rat, plasma","oral, 30 mg/kg, single dose",,AUC(0-t),90.8 ng·h/mL
COc1cc2c(cc1OC)[C@@H]1Cc3ccc(OC)c(OC)c3CN1CC2,,rat plasma QC sample,"640 ng/mL nominal, 15 days, -80 °C, medium QC level storage stability",,measured concentration,632 ± 11.9 ng/mL
CCc1c(-c2ccccc2)c(-c2ccccc2)nn1-c1ccccc1-c1cccc(OCC(=O)O)c1,,"rat, plasma","oral, 10 mg/kg",,Tmax,2 h
CC[C@H](C)[C@@H]1NC(=O)[C@H](Cc2ccc(O)cc2)NC(=O)[C@@H](N)CSSC[C@@H](C(=O)N2CCC[C@H]2C(=O)N[C@@H](CC(C)C)C(=O)NCC(N)=O)NC(=O)[C@H](CC(N)=O)NC(=O)[C@H](CCC(N)=O)NC1=O,"microdialysis, radioimmunoassay","C57BL/6J male mice, wild type, hippocampus extracellular fluid","intranasal, 12 µg, incremental area over baseline",,AUC above baseline,85.4 ± 53.4 pg·30 min/sample
CNC(=O)c1ccc(-c2cnc3ncc(Cc4ccc5ncccc5c4)n3n2)cc1F,,"human, severe hepatic impairment (Child-Pugh C), plasma","oral, 200 mg single dose",,Cmax (mean),2020 ng/mL
CCCSc1nc(N[C@@H]2C[C@H]2c2ccc(F)c(F)c2)c2nnn([C@@H]3C[C@H](OCCO)[C@@H](O)[C@H]3O)c2n1,,"female Wistar Han rats, plasma","oral, 20 mg/kg/day, week 26, carcinogenicity study",,AUC,23.2 µM·h
CCc1ccc(Cc2ccc3c(c2)[C@]2(OC3)O[C@H](CO)[C@@H](O)[C@H](O)[C@H]2O)cc1,,"Wistar rat, male, kidney","oral, dose not given, 1 h",baseline: kidney over plasma concentration,tissue/plasma ratio,848 ± 116
Cn1c(-c2ccc(C(N)=O)cc2F)nnc1C(C)(C)Oc1c(F)cc(Cl)cc1F,,"young Japanese adults, plasma","oral, 50 mg single dose, day 1, high-dose multiple-dose study",,Cmax range over subjects,482 to 852 ng/mL
COc1cc(OC)c(/C=C/S(=O)(=O)Cc2ccc(OC)c(NCC(=O)O)c2)c(OC)c1,,"cancer patients, phase I, plasma","oral, 700 mg twice daily, day 1 cycle 1",,Vss/F,242 ± 212 L
CCCOc1ccc([C@H]2CNC(=O)N2c2ccc3[nH]cnc3c2)cc1,,"human, elderly, fasted, cerebrospinal fluid","oral, 800 mg twice daily, tablet, 12 h, day 11, minimum, estimated",,CSF concentration,54.2 ng/mL
O=C1CN(/N=C/c2ccc(-c3ccc([N+](=O)[O-])cc3)o2)C(O)=N1,,"Sprague-Dawley rat, male, liver","oral, 1000 mg/kg, 24 h, single high dose",direction not given,hepatocyte vacuolization score,0
Cc1[nH]c(=O)c(CNC(=O)c2ccno2)c2c1CCCC2,U-HPLC,20% DMSO in water,,,kinetic solubility,280 µg/mL
C[C@]12CC[C@@H]3c4ccc(O)cc4CC[C@H]3[C@@H]1C[C@@H](O)[C@@H]2O,GC-MS,"breast cancer women on NSAI, serum","vaginal, 0.03 mg daily, 0.5 h, day 28",,maximum serum concentration,0.0129 ng/mL
COc1cccc(N2CCN(C3=Nc4c(F)cccc4[C@H](CC(=O)O)N3c3cc(C(F)(F)F)ccc3OC)CC2)c1,,"healthy women, plasma","intravenous, 240 mg once daily, day 14, mean excluding one outlier subject",,terminal half-life,18 h
Cn1cc(-c2ccc3nnc(Sc4ccc5ncccc5c4)n3n2)cn1,,"cynomolgus monkey male, hepatic S9","1 µM, pH 7.4, together with: without NADPH",,CLint,26.9 ± 4.35 mL/min/kg
CC1=C2C[C@H]3[C@@H](CC[C@@H]4C[C@H](NS(C)(=O)=O)CC[C@@]43C)[C@@H]2CC[C@@]2(C1)O[C@@H]1C[C@H](C)CN[C@H]1[C@H]2C,,"patients, plasma","oral, 30 mg single, day -7, cycle 1",,AUC(0-24),68.3 ng·h/mL
C[C@@H](O)[C@H]1C(=O)N2C(C(=O)O)=C(S[C@@H]3CN[C@H](C(=O)N(C)C)C3)[C@H](C)[C@H]12,microdialysis,"pig, Danish Landrace, cancellous bone","intravenous, 1000 mg over 10 min, 450 min dosing interval, together with: 0.125 µg/mL MIC",baseline: dosing interval,time above MIC,62%
COc1cc(/C=C/C(=O)CC(=O)/C=C/c2ccc(O)c(OC)c2)ccc1O,,"C57BL/6J mouse, olfactory lobes","10 µg IN, 100 µg IP, 30 min, I-125 labelled",baseline: IN over IP,brain uptake ratio,6.79
CC(C)[C@@H](CS(=O)(=O)C(C)C)N1C(=O)[C@@](C)(CC(=O)O)C[C@H](c2cccc(Cl)c2)[C@H]1c1ccc(Cl)cc1,,"human, plasma","oral, 60 mg, new tablet fasted",,AUC(0-24) geometric LS mean,2180 ng·h/mL
CCN(CC)CCNC(=O)c1c(C)[nH]c(/C=C2\C(=O)Nc3ccc(F)cc32)c1C,,"human, plasma","oral, 15 mg/m2, day 7",,minimum trough plasma concentration,13.4 ng/mL
CC[C@H]1OC(=O)[C@H](C)[C@@H](O[C@H]2C[C@@](C)(OC)[C@@H](O)[C@H](C)O2)[C@H](C)[C@@H](O[C@@H]2O[C@H](C)C[C@H](N(C)C)[C@H]2O)[C@](C)(OC)C[C@@H](C)C(=O)[C@H](C)[C@@H](O)[C@]1(C)O,,healthy human subjects,"oral, dose not given, twice daily",,discontinuation due to adverse events,5.3%
CC(C)(Sc1ccncc1-c1ccc(C#N)c2ccccc12)C(=O)O,,"human, male, urine","oral, 10 mg, together with: allopurinol 300 mg",baseline: combination over alone,Ae(0-24) ratio,101%
CO[C@@H]1[C@H](O)[C@@H](CO)O[C@H]1n1ccc(=O)[nH]c1=O,,"male CD-1 mice, plasma","intravenous, 1 mg/kg",,terminal half-life,~5 h
C[C@H](N)C(=O)N[C@H](Cc1c[nH]c2ccccc12)C(=O)N[C@@H](Cc1ccccc1)C(=O)N[C@H](C(=O)N1CCC(C(N)=O)CC1)[C@H](c1ccccc1)c1c[nH]c2ccccc12,RP-HPLC Jupiter Proteo,,acetonitrile/water TFA gradient,,HPLC retention,52 %B
Cc1cnc(NC(=O)C2=C(O)c3ccccc3S(=O)(=O)N2C)s1,,"Sprague-Dawley rat, male, liver","oral, 12 mg/kg, 6 h, single high dose",direction not given,hepatocyte vacuolization score,0
COC(=O)N[C@H](C(=O)N[C@@H](Cc1ccccc1)[C@@H](O)CN(Cc1ccc(-c2ccccn2)cc1)NC(=O)[C@@H](NC(=O)OC)C(C)(C)C)C(C)(C)C,population PK model,"pregnant women, postpartum","oral, median, together with: without tenofovir",,Vd/F,113 L
CC(C)=CCC[C@](C)(O[C@@H]1O[C@H](CO)[C@@H](O)[C@H](O)[C@H]1O)[C@H]1CC[C@]2(C)[C@@H]1[C@H](O)C[C@@H]1[C@@]3(C)CC[C@H](O[C@@H]4O[C@H](CO)[C@@H](O)[C@H](O)[C@H]4O[C@@H]4O[C@H](CO)[C@@H](O)[C@H](O)[C@H]4O)C(C)(C)[C@@H]3CC[C@]12C,,"Sprague-Dawley rat, plasma","oral, 2000 mg/kg ginseng extract, diet with NUTRIOSE 5% for 2 weeks",,AUC,12300 ± 7060 ng·h/mL
CC(=O)O[C@H]1C(=O)[C@@]2(C)[C@H]([C@H](OC(=O)c3ccccc3)[C@]3(O)C[C@H](OC(=O)[C@H](O)[C@@H](NC(=O)c4ccccc4)c4ccccc4)C(C)=C1C3(C)C)[C@]1(OC(C)=O)CO[C@@H]1C[C@@H]2O,noncompartmental analysis,"human, plasma","intravenous, 80 mg/m^2, day 8, DL3 geometric mean, together with: onalespib 200 mg/m^2",,clearance,14.5 ± 4.59 L/h/m²
CC(C)=CCC[C@](C)(O[C@@H]1O[C@H](CO)[C@@H](O)[C@H](O)[C@H]1O)[C@H]1CC[C@]2(C)[C@@H]1[C@H](O)C[C@@H]1[C@@]3(C)CC[C@H](O)C(C)(C)[C@@H]3[C@@H](O[C@@H]3O[C@H](CO)[C@@H](O)[C@H](O)[C@H]3O[C@@H]3O[C@@H](C)[C@H](O)[C@@H](O)[C@H]3O)C[C@]12C,,"rat, extracted tissue homogenate QC samples","0.01 µg/mL, 24 h, 15 °C, autosampler",,post-preparative stability accuracy,107 ± 7.8%
CC[C@H](C)[C@H](NC(C)=O)C(=O)N[C@@]1(C)CCCC=CCCC[C@@](C)(C(=O)N[C@@H](CC(C)C)C(=O)N[C@@H](CCCCN)C(=O)N[C@H](C(N)=O)[C@@H](C)O)NC(=O)[C@H](CC(N)=O)NC(=O)[C@H]([C@@H](C)O)NC(=O)[C@H](CC(C)C)NC1=O,circular dichroism,PBS with 50% trifluoroethanol,"0.3 mg/mL, pH 7.4, 25 °C",,α-helicity,22.1%
CC(C)(Sc1ccncc1-c1ccc(C#N)c2ccccc12)C(=O)O,,"male, plasma","oral, 15 mg, mild renal impairment, fasted",,terminal half-life,9.53 h
FC(F)(F)c1cccc(Nc2ncnc3ccccc23)c1,potentiometric titration,"1-octanol/water, 0.15 M KCl","ionic species, optimized protocol",,logP,1.32
CCCC[C@H](NC(C)=O)C(=O)N[C@H]1CCC(=O)NC[C@@H](C(=O)N[C@@H](Cc2c[nH]c3ccccc23)C(N)=O)NC(=O)[C@H](CCCNC(=N)N)NC(=O)[C@@H](Cc2ccccc2)NC(=O)[C@H](Cc2c[nH]cn2)NC1=O,,"beagle dog, male, plasma","subcutaneous, 40.0 mg/kg daily, day 14",,AUC(0-last),4760 ng·h/mL
CCCC[C@@H]1NC(=O)[C@@H](NC(=O)[C@H](CCC(=O)O)NC(=O)CNC(=O)CN2CCN(CC(=O)O)CCN(CC(=O)O)CCN(CC(=O)O)CC2)CCCCNC(=O)C[C@@H](C(N)=O)NC(=O)[C@H](C(C)C)NC(=O)[C@@H]2CCCN2C(=O)[C@H](CCCNC(=N)N)NC(=O)CNC(=O)[C@H](Cc2c[nH]c3ccccc23)NC(=O)[C@H](CCCNC(=N)N)NC(=O)[C@@H](Cc2ccccc2)NC(=O)[C@H](Cc2c[nH]cn2)NC(=O)[C@H](CCC(=O)O)NC1=O [indium-111 labelled],,"C57 mice, B16/F10 lung metastatic melanoma, pancreas","intravenous, 0.037 MBq, 24 h",,tissue uptake,0.04 ± 0.02 %ID/g
COc1nnc2ccc(N3CCC(c4ccc(OCCN5CCN(C)C(=O)[C@H]5C)cc4)CC3)nn12,population PK model,"Han Wistar rats, plasma",oral,,ka,1.7 h⁻¹
COc1cc(O)c(C(=O)[C@@H]2[C@H](CC=C(C)C)C(C)=CC[C@H]2c2ccccc2)c(O)c1,,male Wistar rat,"oral, 45 mg/kg, 0 to 72 h",baseline: dose,unchanged excreted in faeces,~22%
CC(C)C[C@H](NC(=O)[C@H](CC(C)C)NC(=O)[C@@H](Cc1c[nH]c2ccccc12)NC(=O)[C@H](Cc1ccccc1)NC(=O)[C@@H](NC(=O)[C@@H](N)CCCCN)[C@H](c1ccccc1)c1c[nH]c2ccccc12)C(N)=O,RP-HPLC Kinetex Biphenyl,,acetonitrile/water TFA gradient,,HPLC retention,44.6 %B
CC[C@@]1(O)C(=O)OCc2c1cc1n(c2=O)Cc2cc3c(CN(C)C)c(O)ccc3nc2-1,,"human patients, plasma","oral, dose not given, together with: pazopanib",baseline: compound alone,AUC(0-inf) increase,1.7 fold
O=C(O)/C=C/c1ccccc1,,rat plasma QC sample,"1 ng/mL nominal, 15 days, -80 °C, low QC level storage stability",,measured concentration,0.96 ± 0.08 ng/mL
COc1ccc(-c2cc(=O)c3cc(OC)c(OC)c(OC)c3o2)cc1OC,,"C57BL/6 mouse, male, small intestine","oral, 1% w/w in diet, 6 weeks, orange peel extract diet",baseline: content in orange peel,tissue to peel content ratio,2.7%
[2H]C([2H])([2H])Oc1cc2c(cc1OC([2H])([2H])[2H])C1CC(=O)C(CC(C)C)CN1CC2 (stereo not drawn),measured: deuterated total (α+β)-HTBZ,"healthy human volunteers, plasma","oral, 24 mg single dose, standard meal",,dose-normalized AUC(0-t),22.3 ng·h/mL
CCCCCCOC(=O)NC(=N)c1ccc(NCc2nc3cc(C(=O)N(CCC(=O)OCC)c4ccccn4)ccc3n2C)cc1,,healthy human,"oral, 600 mg single dose, 1.5 to 3 h","baseline: baseline, time-matched",change in QTcI,-5 ms
CS(=O)(=O)Nc1ccc(C(=O)O[C@@H](Cc2c(Cl)c[n+]([O-])cc2Cl)c2ccc(OC(F)F)c(OCC3CC3)c2)cc1OCC1CC1,,"human, plasma","inhaled, 7 days, repeat dose once daily, steady state",,Tmax,1 to 2 h
O=C(/C=C/c1cccc(S(=O)(=O)Nc2ccccc2)c1)NO,,"human moderate liver dysfunction, plasma","intravenous, 400 mg/m^2, 30 min infusion, cycle 1 day -7",,volume of distribution steady-state,38.1 L/m²
